Experimental data collected from several papers.
Lines come from different studies, so protocols differ. “And” joins repeats or separate records; there may be more than shown. ± gives the spread as reported.

| SMILES | cell line | assay | setting | how to read | endpoint | result |
| --- | --- | --- | --- | --- | --- | --- |
| Cn1cc(-n2cnc3c(NCc4nc5cc(Cl)c(Cl)cc5[nH]4)nc(N4CCOCC4)nc32)cn1 | MDA-MB-231 | cell viability, CellCounting-Lite | 666.7 nM, 37 °C | higher = more viable cells | luminescence signal | 10800 a.u. and 8690 a.u. |
| Cc1c(C(=O)O)ccc2c3n(nc12)[C@@H]1[C@H](C3)N(CC2CC2)[C@@]2(C(=O)Nc3cc(Cl)ccc32)[C@H]1c1cccc(Cl)c1F | MDM2-amplified well-differentiated liposarcoma cells | alamarBlue | 120 h | – | GI50 | 3 nM |
| CCc1ccc(NC(=O)Nc2c[nH]c3ccccc23)cc1 | RAW-ISG | western blot | 10 µM, together with: HT-DNA | relative to: vehicle | phospho-TBK1/TBK1 ratio | 0.887 and 0.513 and 0.584 |
| Cc1nc(N(Cc2ccccc2)c2ccc3c(c2)/C(=C/c2ccccc2)C(=O)N3Cc2ccccc2)c2ccccc2n1 (mixture of isomers) | LLC | – | 0.5 µM, 24 h | – | wound healing rate | 43.5% |
| O=C(NC[C@H](O)CN1CCc2ccccc2C1)c1cc(NC2COC2)ncn1 | HeLa | co-immunoprecipitation, western blot, refers to: SNRPB with GFP-SART3 | 10 µM, 3 days | – | protein interaction | decreased |
| C[C@H](Nc1ccc2c(c1)OCCn1cc(N3C(=O)OC[C@H]3C(F)F)nc1-2)C(N)=O | NCI-H1563 | cell growth, CellTiter-Glo | 120 h | – | Hill coefficient GR curve | 0.693 |
| CCc1cnc(N2CCC(c3nc(COc4ccc(-n5cnnn5)cc4)cs3)CC2)nc1 | HEK293T | RNA-seq, refers to: CARS mRNA | 10 µM, 6 h | relative to: vehicle | log2 fold change | 0.384 |
| CCCCCCCCCCCCCCCC(NCc1cccc(C)c1)=C1C(=O)OC(CO)C1=O (stereo not drawn) | G2-synchronized tsFT210 cells | flow cytometry | 50 µM, 4 h, 32 °C, release from G2 arrest | – | G1 phase cells | 51.2% |
| O=C(C[C@@H](C(F)F)n1ccc(F)n1)N1CCC(O)(Cn2cnc3c(cnn3-c3ccc(F)cc3)c2=O)CC1 | CHP-212 parental (wild-type USP7) | annexin V-PI flow cytometry | 1 µM, 48 h | – | early apoptotic cells (annexin V+/PI-) | 17.4% and 16.1% and 19.4% |
| O=C(/C=C/C=C/C=C/C1CCCCC1)NC1=C[C@@](O)(/C=C/C=C/C=C/C(=O)NC2=C(O)CCC2=O)[C@@H]2O[C@@H]2C1=O | NCI-H1838 | cell growth, CellTiter-Glo | 78 h | – | GI50 | > 30000 nM |
| NNc1nc(-c2ccc(Cl)cc2)c2c(NC(=O)c3ccccc3)nnc-2[nH]1 | TK-10 | SRB | 10 µM, NCI60 single-dose screen | relative to: untreated | cell growth | 139% |
| Cc1ccc(Sc2cc(NCCCO)c([N+](=O)[O-])c3nonc23)cc1 | LDR | silenced CMV-GFP reporter derepression, qHTS | – | – | efficacy | 28% |
| Cc1ccc(CNC(=O)Cn2cc(CSc3nc4ccccc4[nH]3)nn2)cc1 | Caco-2 | MTT | 125 ppm | – | cytotoxicity | 86.9% |
| Cc1cnc2ccc3c(c2n1)N1CCC(O)N=C1N3C (stereo not drawn) | BALB/c 3T3 | – | 10 µM | relative to: solvent control | relative colony forming efficiency | 0% |
| CC(=O)Nc1cccc(-n2c(=O)n(C3CC3)c(=O)c3c(Nc4ccc(I)cc4F)n(C)c(=O)c(C)c32)c1 | MeWo (NF1) | cell viability, resazurin | 100.00 nM, 72 h | relative to: DMSO | average fractional effect | 47% |
| COc1cnc2cccc(N3CCc4c(cc(Cn5ccnc5C)cc4-c4cn(C)nc4C(F)(F)F)C3=O)c2c1 | Panc 04.03 | cell growth | 120 h | – | EC50 | 48.3 nM |
| CNc1ncnc2c1c(-c1ccc3cc(OC4CC4)ccc3c1)nn2CC(C)(C)O | PC-3, DU-145, U2OS | mitochondrial respiration, Seahorse | concentration not given | – | oxygen consumption rate | no effect |
| Cn1cc(-c2ccc(-c3cncc(Cl)c3N3CCC4(CCNC4=O)CC3)cc2)cn1 | COLO 205 | gene expression, microarray, refers to: HIF1A mRNA | concentration not given, 2 h | relative to: untreated cells | log2 fold change | -1.05 |
| O=P1(C2CCCCC2)CCCCC1 | HaCaT | annexin V/PI flow cytometry | IC50, 72 h | – | early apoptotic cells | 3.2% |
| CC#CC(=O)N1CC[C@@H](n2cc(-c3ccc(Oc4c(F)cccc4F)cc3)c3c(N)n[nH]c(=O)c32)C1 | REC-BTK^C481S | cell growth | 72 h | – | GI50 | 10800 nM |
| Clc1nc(NCc2ccco2)c2[nH]cnc2n1 | iPSC-derived cardiomyocytes | RNA-seq, refers to: ANKRD10 chr13 exon ending 110900661 | unit not given | relative to: DMSO minus compound | ΔPSI | -0.206 |
| Cc1cccc(-c2[nH]c(CNc3ccccc3F)nc2-c2ccc3ncnn3c2)n1 | MM1.S | XTT | 0.6 µM | – | viability | 95% and 82% and 68% |
| CCCCc1nc(Cl)c(CO)n1Cc1ccc(-c2ccccc2-c2nn[nH]n2)cc1 | human PBMC | RNA-seq, refers to: CXCL8 mRNA | 10 µg/mL, 24 h | relative to: untreated control | log2 fold change | 2.4 |
| COc1cccc(N2CCN(S(=O)(=O)c3ccc(-n4cnnn4)cc3)CC2)c1 | LDR | silenced CMV-GFP reporter derepression, qHTS | – | – | efficacy | 21% |

| SMILES | cell line | assay | setting | how to read | endpoint | result |
| --- | --- | --- | --- | --- | --- | --- |
| Nc1cccc2c1C(=O)N(C1CCC(=O)NC1=O)C2=O (stereo not drawn) | bone marrow CD138+ myeloma cells | XTT | 1.2 µM, phenol red-free RPMI | – | viability | 70% |
| Cn1cc(Nc2nccc(-c3ccc4c(c3)CN(C3COC3)CC[C@H]4NC(=O)c3cn(C(C)(C)C)nn3)n2)cn1 | mouse splenic B cells | refers to: Triacylglycerol biosynthesis | 30 mg/kg, IgD-activated in vivo | relative to: vehicle, direction not given | pathway activation z-score | -0.816 |
| COc1ccc(OC)c(Nc2nc3nonc3nc2N2CCCC(C)C2)c1 (stereo not drawn) | LDR | silenced CMV-GFP reporter derepression, qHTS | – | – | efficacy | 28% |
| Cc1cc(NS(=O)(=O)c2ccc(NC(=O)/C(C#N)=C/c3ccc(N4CCCCC4)cc3)cc2)no1 | HCT-116 | ELISA, refers to: Bcl-2 | IC50, 48 h | – | protein level | 0.095 ng/mg |
| Cn1c(Nc2nc3ccc(C(F)(F)F)cc3s2)nc2cc(C(=O)NCCOCCO)ccc21 | SH-SY5Y | RNA-seq, refers to: FBLIM1 mRNA | 5 µM, 5 h | relative to: untreated cells | fold change | 1.73 |
| COc1cc2ncnc(Nc3ccc(Oc4ccccc4)c(C)c3C)c2cc1OC.Cl | MeWo (NF1) | cell viability, resazurin | 0.3 µM, 72 h, together with: trametinib | – | average fractional effect | 8% |
| Nc1ncnc2c1ncn2[C@@H]1O[C@H](CO)[C@@H](O)[C@H]1O | activated human T cells | refers to: adenosine | 30 µM | relative to: DMSO | log2 fold change | 0.759 and 0.7 and 1.5 |
| CC/C(=N\NC(=O)NCc1cccc(O)c1)c1ccc(O)c(C)c1O | SK-OV-3 | Western blot, refers to: LATS | 10 µM, 1 h, 2D culture, unit not given | relative to: β-actin | protein level | 0.98 ± 0.43 |
| COc1ccc(-c2cc(-c3ccccc3)nc(SCC(=O)Nc3nccs3)c2C#N)cc1 | LDR | silenced CMV-GFP reporter derepression, qHTS | – | – | efficacy | 25% |
| CC(=O)c1nn(-c2ccc(Cl)cc2)/c(=N/N=C(\C)c2ccc(NC(=O)c3ccc(C)cc3)cc2)s1 | MCF7 | – | 0.156 µM | – | toxicity | 0.172% |
| CSc1cc(Oc2ccnc3[nH]c(=O)cnc23)ccc1NC(=O)Nc1cc(C(C)(C)C)nn1-c1ccccc1 | mean of patient lines P1-P3 | reverse phase protein array, refers to: mTOR phosphosite 2448 | 1 µM, 4 h | relative to: DMSO | phospho/total mTOR ratio | 0.72 |
| Nc1nnc(-c2ccccc2O)cc1N1CCN(Cc2ccc(OCCOCCNc3cccc4c3C(=O)N(C3CCC(=O)NC3=O)C4=O)c(F)c2)CC1 (stereo not drawn) | H1975 SMARCA4 wild type | ATAC-seq | 1 µM, 96 h | – | lost enhancer peaks | 8% |
| CCc1ccc(NC(=O)C2CCC(CNS(=O)(=O)c3ccc4c(c3)CC(C)N4C(C)=O)CC2)cc1 (stereo not drawn) | LDR | silenced CMV-GFP reporter derepression, qHTS | – | – | efficacy | 27% |
| CCn1cc(-c2cc(Cn3ccoc3=N)cc3c2CCN([C@@H](C)c2cc(OC)ccn2)C3=O)c(C(F)(F)F)n1 | SHP77 | cell growth, inhibitor | 120 h | – | EC50 | 1410 nM |
| CCCCS(=N)(=O)CCC(N)C(=O)O (stereo not drawn) | OVCAR-5 | LC-ESI-MS/MS, refers to: glutathione | 40 µM, 12 h | relative to: untreated | remaining GSH | 2.1% |
| CCn1cc(-c2cc(Cn3ccnc3)cc3c2CCN([C@H](c2cc(OC)ccn2)C2CC2)C3=O)c(C(F)(F)F)n1 | HEC108 | cell growth | 120 h | – | EC50 | > 30000 nM |
| Cc1cc(Nc2ncc(Cl)c(Nc3ccccc3S(=O)(=O)C(C)C)n2)c(OC(C)C)cc1C1CCNCC1 | CLB-BAR | phosphoproteomics LC-MS/MS, refers to: KIAA1549 phosphorylation | 200 nM, 60 min | relative to: untreated | log2 fold change | -2.23 |
| Cc1nn(-c2nc3c(F)cc(F)cc3s2)c(O)c1C(c1ccc(C(F)(F)F)cc1)c1c(C)nn(-c2nc3c(F)cc(F)cc3s2)c1O | RAW-ISG | western blot | 20 µM, together with: HT-DNA | relative to: DMSO | phospho-IRF3 to IRF3 ratio | 0.339 and 0.179 and 0.21 |
| c1ccc2[nH]ccc2c1 | HCT-8 | RNA-seq, refers to: ARRDC3 | concentration not given | – | mRNA level, LS mean | 77 counts per million |
| CC1(C)CCC(CN2CCN(c3ccc(C(=O)NS(=O)(=O)c4ccc(NCC5CCOCC5)c([N+](=O)[O-])c4)c(Oc4cnc5[nH]ccc5c4)c3)CC2)=C(c2ccc(Cl)cc2)C1 | mouse BMDM | CellTiter-Glo | concentration not given | – | viability | 9.79% |
| O=S(=O)(NNc1nnc(Cl)c2ccccc12)c1ccc(F)cc1 | Vero | MTT | 125 µg/mL | – | cytotoxicity | 47.3% |
| C=CC1=C(C)c2cc3[n-]c(cc4nc(cc5[n-]c(cc1n2)c(C)c5C=C)C(C)=C4CCC(=O)O)c(CCC(=O)O)c3C.[Zn+2] | SH-SY5Y | RNA-seq, refers to: DKK1 mRNA | 5 µM, 5 h | relative to: untreated cells | fold change | 1.62 |
| C=C1C(=O)O[C@@H]2[C@H]3O[C@]3(C)CC/C=C(/C)CC[C@@H]12 | LDR | silenced CMV-GFP reporter derepression, qHTS | – | – | efficacy | 19% |
| CC(C)NCC(O)c1ccc(O)c(O)c1 (stereo not drawn) | mouse ventricular cardiomyocytes | – | dose not given, 0.291 s | – | sarcomere length | 1.8 µm |
